Assay results of several laboratories.
Numbered parts are unrelated; each lists some results of a single study. Substitutions count along the parent as printed.

Sample 1
Target: Centromere-binding protein 1, full length, His-tagged (CBF1, Saccharomyces cerevisiae, UniProt P17106, residues 1-351)
Sequence of UniProt P17106 (whole entry, looked up): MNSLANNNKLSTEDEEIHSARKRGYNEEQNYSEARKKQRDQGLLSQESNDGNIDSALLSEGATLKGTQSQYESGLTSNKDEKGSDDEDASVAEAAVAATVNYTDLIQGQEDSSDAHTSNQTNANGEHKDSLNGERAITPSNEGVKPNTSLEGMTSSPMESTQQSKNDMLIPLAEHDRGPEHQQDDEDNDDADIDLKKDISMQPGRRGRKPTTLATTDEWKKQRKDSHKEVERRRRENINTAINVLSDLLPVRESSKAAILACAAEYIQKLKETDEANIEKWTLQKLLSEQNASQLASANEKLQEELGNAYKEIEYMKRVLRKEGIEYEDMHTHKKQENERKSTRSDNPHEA
Technique: competition protein-binding microarray
Form: double-stranded DNA, one strand shown
Medium: in vitro
Concentration: 2 µM
Notes: whole 60-bp probe, lowest competitor level
With: Pho4 competitor, 0.05 µM
Direction: higher = stronger binding
Constant ends, left off below: … GTCTTGATTCGCTTGACGCTGCTG
Sequence | fluorescence intensity
TTACTATTTGTGTCCCACGTGCTTTATTGTCTTATG | 2610 a.u.
TCGTTTCCTAACTGGCACGTCACTTATAACGAGGTG | 74 a.u.
CTTCTGTAAATTTGTTCTGTGGGTGGACGCGCCCCG | 81.4 a.u.
TATAAGTATCCTTCAGACGTGCAAATTCTTCAGGGC | 80.6 a.u.
ACAAATGGTAACTGGCACGTTAATTGGTTTAACATT | 102 a.u.
CATACCCAACCTTGCAGCGTGGGTGAAGATATTTGT | 74.8 a.u.
AAGCACTGCGGTAGGTGCATGACAGGAGGCCCCTAG | 59.6 a.u.
GATAATGACACACAGCACGCAAGTACAAGTGTCAAT | 66.3 a.u.
GGGCCCGCAGTTTTGCACATGCGCGTTACTGGATCG | 85.5 a.u.
CTTCTGTAAATTTGTCACATGACTTGACGCGCCCCG | 2640 a.u.
CTAACGAAGGTTTGCTTGGTGGGTGACAAGCCAAGT | 63.8 a.u.
CTTTCCCGATCTTGGGTCGTGGGTGTAGCACATTTG | 63.6 a.u.
GTCTTGTCTCATTGCCGAGTGGGTGTCCCCACTTCA | 71 a.u.
TGCGCAACAACTTGTAGCGTGGGTGTATGTCTAGAA | 71.3 a.u.
AAATGAAGCCTCCTCCACGTTTATTGCCTTATTTAA | 73.4 a.u.
CGTATGGTCTGCGACCTTGGGACATACAGTAAGTAG | 61.8 a.u.
AGTAACCCTGCTTCACACATGAGAAACATTATCGCT | 74.3 a.u.
CCAGTTTTGGACTGTCACACTGCTCCCATTGCTTGT | 88.7 a.u.
CGCCCCCCAGCTCGGCACGCTGGTCAACACAGGCTG | 95.5 a.u.

Sample 2
Target: Histone acetyltransferase KAT6A, both winged helices, GST fusion (KAT6A, Homo sapiens, UniProt Q92794, residues 1-181)
Technique: protein binding microarray
Form: double-stranded DNA, one strand shown
Medium: in vitro
Concentration: not given
Notes: 8-mer, flanks averaged, mean of 2 arrays, mostly near background
Reference: not given
Direction: higher = stronger binding
Construct (chain): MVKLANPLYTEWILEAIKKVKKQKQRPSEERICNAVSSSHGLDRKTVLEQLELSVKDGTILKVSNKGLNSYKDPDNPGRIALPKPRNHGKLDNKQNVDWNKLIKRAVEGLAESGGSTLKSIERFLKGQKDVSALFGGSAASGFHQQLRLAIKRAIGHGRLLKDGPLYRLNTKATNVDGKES
Sequence | E-score
ATCGATAC | -0.00532
AAGACGGC | 0.16
AAGAGTAC | -0.0912
AATATACA | -0.0877
AGACCAAG | -0.00576
GTTTACGA | -0.184
GATGTCGC | 0.217
TGCACGCA | 0.0787
TATGGCGA | -0.0701
AGCATCTA | -0.08
AACTCTTG | -0.376
CATTACCG | 0.155
AGTCATCA | -0.123
ATACCCGG | 0.176
AGGGCTTC | -0.13
TCGGACAA | 0.0837
ATCTGAAG | -0.0447
GCGCTCCA | 0.211
CCGGAAGG | 0.0121
TGGCCTAA | -0.11
CTTGGGGC | -0.00617
GTGAACTA | 0.0204
CTCGCAAG | 0.039
TAAGGTCA | -0.166
GACCCGAC | 0.0721

Sample 3
Target: CCNA1, cyclin fold, Cln2 fusion (human)
Technique: yeast growth competition, sequencing
Medium: yeast
Notes: weak parent motif
Reference: not given
Direction: higher = stronger binding
Parent: ORC1 docking peptide (human); PRARKRLELGNLG
Variant | normalised enrichment score
PRARIRLELGNLG [K5I] | 0.309
PRARKRLELGWLG [N11W] | 0.264
PSARKRLELGNLG [R2S] | 0.0677
PRARKRLELDNLG [G10D] | 0.686
PRARKRLELGYLG [N11Y] | 0.692
PRARKRLEGGNLG [L9G] | -0.000947
PRASKRLELGNLG [R4S] | -0.0484
PRAPKRLELGNLG [R4P] | 0.0779
PRARLRLELGNLG [K5L] | 0.189
PRARKRLELGNLQ [G13Q] | 0.711
PRARKLLELGNLG [R6L] | 0.205
PRARKRLELTNLG [G10T] | 0.231
PRARKGLELGNLG [R6G] | 0.776
PRAIKRLELGNLG [R4I] | 0.287
PRARKRLELGNLA [G13A] | 0.153
PRARKRLELVNLG [G10V] | 0.158
PRARKRLELGNLH [G13H] | 0.489
PRARKVLELGNLG [R6V] | 0.358
PRARKKLELGNLG [R6K] | 0.492
PRVRKRLELGNLG [A3V] | 0.205
PRMRKRLELGNLG [A3M] | 1.07
PRALKRLELGNLG [R4L] | 0.627
PRARKRLEWGNLG [L9W] | 0.555

Sample 4
Target: Interferon regulatory factor 3, full length, phosphomimetic (IRF3, Homo sapiens, UniProt Q14653, residues 1-427, S386D/S396D/S398D/S402D/T404D/S405D)
Technique: protein-binding microarray
Form: double-stranded DNA, one strand shown
Medium: in vitro
Concentration: 2540 nM top
Notes: 60-bp whole probe
With: salmon DNA 0.4 mg/ml
Reference: random background probes
Direction: higher = stronger binding
Constant ends, left off below: GCCTAGCAC … GTCTTGATTCGCTTGACGCTGCTG
Construct (chain): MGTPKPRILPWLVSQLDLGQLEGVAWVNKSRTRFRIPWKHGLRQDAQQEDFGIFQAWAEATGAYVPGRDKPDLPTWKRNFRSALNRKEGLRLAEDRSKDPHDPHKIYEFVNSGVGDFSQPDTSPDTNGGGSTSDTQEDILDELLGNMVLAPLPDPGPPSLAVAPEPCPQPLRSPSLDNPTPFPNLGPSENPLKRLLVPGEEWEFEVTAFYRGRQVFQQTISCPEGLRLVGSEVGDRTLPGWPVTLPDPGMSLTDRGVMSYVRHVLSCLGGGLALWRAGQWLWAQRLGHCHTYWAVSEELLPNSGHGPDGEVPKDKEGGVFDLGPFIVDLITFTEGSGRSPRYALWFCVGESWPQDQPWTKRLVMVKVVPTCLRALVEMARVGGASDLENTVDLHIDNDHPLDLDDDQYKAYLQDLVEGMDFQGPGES
Sequence | fitted relative affinity [z-score]
GTTCTACCTCTGCCTTTTGTGTGCTAG | 0.892
TTAGATCTCTGACTGGATTAGTGCTAG | -0.362
TTAGGACTGGGTATCGGTTCGTGCTAG | 1.2
TCTGTTTTTGCTTTCTTTTTGTGCTAG | 2.6
TTAGTACTGCTTCTCCTTTAGTGCTAG | 0.492
TTCGGTCTCGGTCTCGGTTAGTGCTAG | 1.91
GACGATTTCAGTTTCGGGACGTGCTAG | 5
TCAATTTTCTGAATGCCACTGTGCTAG | 1.35
TCCGTATGGATGGCCAATTGGTGCTAG | 0.0485
TTAGTACTGGGGACTGGGTTAGTGCTA | -0.732
TTAGATTTCAGACTGGATTAGTGCTAG | 0.68
TCATGTTGCAAATATTGCACTGTGCTA | 0.249
GACGAACGGAGTCTCGAGACGTGCTAG | -0.342
GACGATCTCAGTTTCGTGACGTGCTAG | 2.07
ACAAGTTTCTCCTTTCCAAAGTGCTAG | 3.86
GACGGTATCCTGCTGCTGACGTGCTAG | 0.954

Excerpt of the above (sample 2):
Sequence | E-score
GTTTACGA | -0.184
GATGTCGC | 0.217
TGCACGCA | 0.0787
TATGGCGA | -0.0701
AGCATCTA | -0.08
AACTCTTG | -0.376
CATTACCG | 0.155
AGTCATCA | -0.123
ATACCCGG | 0.176
AGGGCTTC | -0.13
TCGGACAA | 0.0837
ATCTGAAG | -0.0447
